# Experimental data pooled from the literature.
# Protocols differ between the studies behind these lines.
# Chain of UniProt Q96PY6 (whole entry, looked up): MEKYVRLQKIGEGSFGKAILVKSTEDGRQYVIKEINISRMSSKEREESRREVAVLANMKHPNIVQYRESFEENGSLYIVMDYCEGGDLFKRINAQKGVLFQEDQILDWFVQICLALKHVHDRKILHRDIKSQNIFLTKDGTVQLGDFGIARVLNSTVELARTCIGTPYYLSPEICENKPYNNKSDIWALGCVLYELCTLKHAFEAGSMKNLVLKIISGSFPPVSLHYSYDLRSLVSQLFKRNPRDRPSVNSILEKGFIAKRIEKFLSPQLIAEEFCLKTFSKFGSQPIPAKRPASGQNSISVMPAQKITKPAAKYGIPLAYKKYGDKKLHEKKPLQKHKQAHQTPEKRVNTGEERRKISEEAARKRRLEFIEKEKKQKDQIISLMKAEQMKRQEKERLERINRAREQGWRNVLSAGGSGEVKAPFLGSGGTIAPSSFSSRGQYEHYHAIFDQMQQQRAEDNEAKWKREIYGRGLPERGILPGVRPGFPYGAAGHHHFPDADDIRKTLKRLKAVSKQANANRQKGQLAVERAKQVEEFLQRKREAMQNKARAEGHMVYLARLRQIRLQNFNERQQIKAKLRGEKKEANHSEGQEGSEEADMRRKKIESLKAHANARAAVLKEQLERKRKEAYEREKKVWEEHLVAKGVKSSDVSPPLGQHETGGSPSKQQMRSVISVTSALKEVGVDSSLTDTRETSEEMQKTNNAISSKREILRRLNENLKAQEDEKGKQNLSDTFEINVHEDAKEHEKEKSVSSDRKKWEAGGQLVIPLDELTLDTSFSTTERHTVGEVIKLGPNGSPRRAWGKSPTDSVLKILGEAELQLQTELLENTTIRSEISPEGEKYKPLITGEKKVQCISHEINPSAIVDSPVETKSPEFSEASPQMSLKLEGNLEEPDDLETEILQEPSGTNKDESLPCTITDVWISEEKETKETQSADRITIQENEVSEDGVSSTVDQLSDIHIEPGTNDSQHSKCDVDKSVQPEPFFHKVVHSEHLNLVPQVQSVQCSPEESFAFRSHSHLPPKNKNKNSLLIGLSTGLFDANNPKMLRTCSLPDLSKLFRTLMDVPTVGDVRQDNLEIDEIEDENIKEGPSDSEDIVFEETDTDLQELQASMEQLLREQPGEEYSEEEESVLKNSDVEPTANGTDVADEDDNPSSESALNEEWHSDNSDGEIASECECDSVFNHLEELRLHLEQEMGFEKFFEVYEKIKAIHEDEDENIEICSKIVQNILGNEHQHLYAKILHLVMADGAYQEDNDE
# Chain of UniProt Q16539 (whole entry, looked up): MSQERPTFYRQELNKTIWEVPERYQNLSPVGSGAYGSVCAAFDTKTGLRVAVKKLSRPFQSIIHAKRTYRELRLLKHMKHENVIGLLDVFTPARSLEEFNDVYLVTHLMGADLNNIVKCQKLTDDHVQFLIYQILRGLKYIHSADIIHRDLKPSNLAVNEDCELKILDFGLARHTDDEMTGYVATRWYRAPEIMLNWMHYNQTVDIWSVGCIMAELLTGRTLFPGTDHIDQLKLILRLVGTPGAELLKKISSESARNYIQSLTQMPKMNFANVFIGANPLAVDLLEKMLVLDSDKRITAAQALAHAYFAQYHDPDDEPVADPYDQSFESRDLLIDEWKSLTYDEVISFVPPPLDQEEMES
# Chain of UniProt Q9P0L2 (whole entry, looked up): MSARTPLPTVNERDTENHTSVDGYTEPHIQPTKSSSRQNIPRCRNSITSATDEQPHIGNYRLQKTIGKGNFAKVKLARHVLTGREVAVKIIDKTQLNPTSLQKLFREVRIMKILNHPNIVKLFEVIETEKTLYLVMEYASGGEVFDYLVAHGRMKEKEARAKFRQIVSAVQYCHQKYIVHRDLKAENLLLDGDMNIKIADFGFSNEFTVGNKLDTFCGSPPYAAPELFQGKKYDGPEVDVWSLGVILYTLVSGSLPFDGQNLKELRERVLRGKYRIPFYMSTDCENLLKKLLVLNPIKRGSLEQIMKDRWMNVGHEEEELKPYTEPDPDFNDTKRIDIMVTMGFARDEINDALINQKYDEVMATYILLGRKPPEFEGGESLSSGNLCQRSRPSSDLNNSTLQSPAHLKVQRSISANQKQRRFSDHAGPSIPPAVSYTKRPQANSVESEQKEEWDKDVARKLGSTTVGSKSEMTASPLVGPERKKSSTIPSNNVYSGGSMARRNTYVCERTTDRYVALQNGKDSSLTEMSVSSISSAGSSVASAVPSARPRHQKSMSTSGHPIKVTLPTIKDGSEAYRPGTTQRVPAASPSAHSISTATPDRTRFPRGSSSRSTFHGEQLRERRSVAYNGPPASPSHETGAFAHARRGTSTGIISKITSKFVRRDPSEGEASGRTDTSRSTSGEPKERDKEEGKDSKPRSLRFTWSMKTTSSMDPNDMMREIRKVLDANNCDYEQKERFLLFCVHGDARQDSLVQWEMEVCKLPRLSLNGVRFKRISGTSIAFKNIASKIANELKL
# Chain of UniProt Q9H2K8 (whole entry, looked up): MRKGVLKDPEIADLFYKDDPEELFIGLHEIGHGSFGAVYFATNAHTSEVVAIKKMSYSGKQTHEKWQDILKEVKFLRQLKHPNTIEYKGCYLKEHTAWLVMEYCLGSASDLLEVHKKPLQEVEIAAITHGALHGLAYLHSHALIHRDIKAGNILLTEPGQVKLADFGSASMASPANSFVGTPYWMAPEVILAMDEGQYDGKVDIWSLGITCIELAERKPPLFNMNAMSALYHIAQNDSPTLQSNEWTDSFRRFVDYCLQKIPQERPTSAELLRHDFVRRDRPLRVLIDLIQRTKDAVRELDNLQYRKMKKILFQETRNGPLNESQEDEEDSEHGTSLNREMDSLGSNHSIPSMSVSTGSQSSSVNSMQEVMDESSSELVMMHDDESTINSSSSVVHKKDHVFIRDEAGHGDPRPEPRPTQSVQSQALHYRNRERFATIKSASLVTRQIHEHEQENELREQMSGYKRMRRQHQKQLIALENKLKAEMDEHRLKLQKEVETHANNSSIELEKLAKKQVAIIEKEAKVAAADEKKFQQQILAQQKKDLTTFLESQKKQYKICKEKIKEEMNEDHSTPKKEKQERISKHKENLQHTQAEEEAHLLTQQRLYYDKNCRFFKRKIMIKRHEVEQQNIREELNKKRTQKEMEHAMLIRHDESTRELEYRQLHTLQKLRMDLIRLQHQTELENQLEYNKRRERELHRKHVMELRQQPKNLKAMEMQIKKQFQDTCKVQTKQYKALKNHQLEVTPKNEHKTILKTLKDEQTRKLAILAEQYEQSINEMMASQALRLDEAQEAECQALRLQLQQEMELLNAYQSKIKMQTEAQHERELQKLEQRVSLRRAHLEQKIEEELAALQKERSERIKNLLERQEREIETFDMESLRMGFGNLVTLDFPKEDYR
# Chain of UniProt Q96L34 (whole entry, looked up): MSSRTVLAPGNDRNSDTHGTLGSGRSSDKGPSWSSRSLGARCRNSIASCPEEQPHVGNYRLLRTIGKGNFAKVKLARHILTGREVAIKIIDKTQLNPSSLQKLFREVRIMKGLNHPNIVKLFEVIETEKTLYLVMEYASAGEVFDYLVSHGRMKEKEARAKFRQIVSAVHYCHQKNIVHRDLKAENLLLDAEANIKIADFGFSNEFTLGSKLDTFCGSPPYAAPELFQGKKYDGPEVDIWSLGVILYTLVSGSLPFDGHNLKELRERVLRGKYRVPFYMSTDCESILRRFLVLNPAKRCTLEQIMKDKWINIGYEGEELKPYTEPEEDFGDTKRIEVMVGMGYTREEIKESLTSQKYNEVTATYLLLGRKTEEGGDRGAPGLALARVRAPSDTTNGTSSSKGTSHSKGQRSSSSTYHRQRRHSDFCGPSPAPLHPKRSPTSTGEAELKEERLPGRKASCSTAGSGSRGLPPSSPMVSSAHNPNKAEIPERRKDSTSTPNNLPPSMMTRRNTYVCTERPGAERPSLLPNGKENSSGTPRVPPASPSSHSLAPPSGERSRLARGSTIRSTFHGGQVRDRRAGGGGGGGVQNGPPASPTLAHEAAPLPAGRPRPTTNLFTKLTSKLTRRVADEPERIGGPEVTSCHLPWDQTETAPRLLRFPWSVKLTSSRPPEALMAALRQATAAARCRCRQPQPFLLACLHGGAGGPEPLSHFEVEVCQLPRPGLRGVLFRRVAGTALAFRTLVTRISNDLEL
# Chain of UniProt Q9BUB5 (whole entry, looked up): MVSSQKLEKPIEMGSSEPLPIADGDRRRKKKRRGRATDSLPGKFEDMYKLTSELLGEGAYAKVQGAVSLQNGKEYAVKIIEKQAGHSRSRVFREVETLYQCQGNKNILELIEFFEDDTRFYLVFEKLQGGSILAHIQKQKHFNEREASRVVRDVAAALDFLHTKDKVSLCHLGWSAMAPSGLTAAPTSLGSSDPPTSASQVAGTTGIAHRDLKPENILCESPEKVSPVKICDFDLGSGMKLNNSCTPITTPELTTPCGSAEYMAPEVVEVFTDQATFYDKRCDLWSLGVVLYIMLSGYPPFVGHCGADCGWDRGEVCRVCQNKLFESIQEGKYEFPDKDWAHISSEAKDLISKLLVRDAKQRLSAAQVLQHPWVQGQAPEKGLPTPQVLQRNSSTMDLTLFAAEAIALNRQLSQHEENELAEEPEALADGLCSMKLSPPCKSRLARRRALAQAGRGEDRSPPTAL
SMILES,target or system,assay,conditions,quantity,value
Oc1ccc(Br)cc1C=NCCN1CCOCC1,,"DPPH scavenging, absorbance",200 µM,inhibition,40.3%
CCCCC(=O)Nc1ccc(-c2ccc3ncn(CCC)c(=O)c3c2)cn1,"TAOK3 (Homo sapiens, UniProt Q9H2K8)","binding, competition with immobilised ligand",0.5 µM,remaining binding,100%
COc1cc(-c2nc3ccccc3c(=O)n2Nc2ccc([N+](=O)[O-])cc2[N+](=O)[O-])ccc1OCc1cn(CC(=O)Nc2cccc(C)c2)nn1,,"DPPH scavenging, absorbance",100 µM,inhibition,24.3%
O=C1O[C@H]([C@@H](O)CO)C(O)=C1O,,DPPH scavenging,500 µg/mL,inhibition,62.2%
Cc1cc([C@@H](C)Nc2ccccc2C(=O)O)c2nc(N3CCC(F)(F)CC3)c(C#N)c(=O)n2c1,"MAPK14 (Homo sapiens, UniProt Q16539)","binding, competition with immobilised ligand",10 µM,remaining binding,92%
CCc1ccc(NC(=O)Cn2cc(COc3ccc(-c4nc5ccccc5c(=O)n4Nc4ccc([N+](=O)[O-])cc4[N+](=O)[O-])cc3OC)nn2)cc1,,"DPPH scavenging, absorbance",100 µM,inhibition,14.9%
C=CC(=O)N1CCC(COCC(=O)N2CCN(c3nc(-c4cnc(N)nc4C(F)F)nc(N4CCOC[C@@H]4C)n3)CC2)CC1,"MKNK1 (Homo sapiens, UniProt Q9BUB5)","binding, competition with immobilised ligand",1 µM,remaining binding,97%
COc1cc(-c2nc3ccccc3c(=O)n2Nc2ccc([N+](=O)[O-])cc2[N+](=O)[O-])ccc1OCc1cn(CC(=O)Nc2ccc(Br)cc2)nn1,,"DPPH scavenging, absorbance",100 µM,inhibition,14.9%
C1=C/COCc2cc(ccc2OCCN2CCCC2)Nc2nccc(n2)-c2cccc(c2)COC/1,"MARK4 (Homo sapiens, UniProt Q96L34)",cell-free assay,0.1 µM,remaining signal,100%
COc1cc(C2NCCc3cc(O)c(O)cc32)cc(OC)c1O (stereo not shown),,ABTS scavenging,"10 min, dark",IC50,6.53 µM
CNc1ncc2c(/C=C/C(=O)N3CCC(OC)CC3)nn(Cc3cccc(C(F)(F)F)c3)c2n1,"NEK1 (Homo sapiens, UniProt Q96PY6)","enzyme activity, inhibitor, radiometric",1 µM,remaining activity,102%
O=S(=O)(Nc1nccs1)c1ccc(N=NN(O)c2ccccc2)cc1,,"DPPH scavenging, absorbance",240 µg/mL,inhibition,36.6%
COc1cc(-c2cncc3c2CN(C)Cc2cc(N4CCNCC4)ccc2-3)cc(OC)c1OC,"MARK1 (Homo sapiens, UniProt Q9P0L2)","enzyme activity, inhibitor",1 µM,remaining activity,103%
Cc1noc(NS(=O)(=O)c2ccc(N=NN(C)O)cc2)c1C,,"DPPH scavenging, absorbance",240 µg/mL,inhibition,24.4%
CC(C)=CC1NCCc2cc(O)c(O)cc21 (stereo not shown),,ABTS scavenging,"10 min, dark",IC50,10.3 µM
Cc1cccc(N(O)N=Nc2ccc(S(=O)(=O)Nc3nccs3)cc2)c1,,"DPPH scavenging, absorbance",240 µg/mL,inhibition,35.5%
COc1cc(-c2nc3ccccc3c(=O)n2Nc2ccc([N+](=O)[O-])cc2[N+](=O)[O-])ccc1OCc1cn(CC(=O)Nc2ccc(Cl)cc2)nn1,,"DPPH scavenging, absorbance",100 µM,inhibition,11.8%
COc1ccc(C2NCCc3cc(O)c(O)cc32)cc1O (stereo not shown),,ABTS scavenging,"10 min, dark",IC50,13.5 µM
Cc1cc(NS(=O)(=O)c2ccc(N=NN(C)O)cc2)no1,,"DPPH scavenging, absorbance",180 µg/mL,inhibition,37.1%

# A few entries again:
SMILES,target or system,assay,conditions,quantity,value
Oc1ccc(Br)cc1C=NCCN1CCOCC1,,"DPPH scavenging, absorbance",200 µM,inhibition,40.3%
CCCCC(=O)Nc1ccc(-c2ccc3ncn(CCC)c(=O)c3c2)cn1,"TAOK3 (Homo sapiens, UniProt Q9H2K8)","binding, competition with immobilised ligand",0.5 µM,remaining binding,100%
COc1cc(-c2nc3ccccc3c(=O)n2Nc2ccc([N+](=O)[O-])cc2[N+](=O)[O-])ccc1OCc1cn(CC(=O)Nc2cccc(C)c2)nn1,,"DPPH scavenging, absorbance",100 µM,inhibition,24.3%
